{"data": "Assay results pooled from the literature", "note": "Numbers after ± are the reported error."}
{"Compound": "CCOc1ccc(Cc2cc([C@]34OC[C@](CO)(O3)[C@@H](O)[C@H](O)[C@H]4O)ccc2Cl)cc1", "test": "rapid equilibrium dialysis", "system": "healthy subjects normal renal function, plasma", "setting": "oral, 15 mg, 1 h postdose", "endpoint": "fraction unbound", "result": 0.0348}
{"Compound": "CN(C)C(=O)c1cc2cnc(Nc3ccc(N4CCNCC4)cn3)nc2n1C1CCCC1", "test": "equilibrium dialysis", "system": "human, non-enhancing tumour homogenate", "endpoint": "fraction unbound", "result": 0.061}
{"Compound": "Cc1ccc(Nc2nccc(N(C)c3ccc4c(C)n(C)nc4c3)n2)cc1S(N)(=O)=O", "test": "equilibrium dialysis", "system": "patients, normal albumin, plasma", "setting": "6 h, 37 °C, median", "endpoint": "fraction unbound", "result": "0.000129 ± 6.1e-05"}
{"Compound": "CC(=O)N[C@H](CSSC[C@H](N)C(=O)O)C(=O)N[C@H](C)C(=O)N[C@H](CCCNC(=N)N)C(=O)N[C@H](CCCNC(=N)N)C(=O)N[C@H](CCCNC(=N)N)C(=O)N[C@H](C)C(=O)N[C@H](CCCNC(=N)N)C(N)=O", "test": "in vitro hemodialysis", "system": "buffered aqueous solution", "setting": "2.1 µM, 15 min", "how to read": "relative to: dose", "endpoint": "fraction cleared by hemodialysis", "result": "~70%"}
{"Compound": "CC(C)/N=c1\\cc2n(-c3ccc(Cl)cc3)c3ccccc3nc-2cc1Nc1ccc(Cl)cc1", "system": "THP-1 caseum surrogate", "setting": "5 µM, 4 h, 37 °C", "endpoint": "fraction unbound", "result": "< 0.0001"}
{"Compound": "CNCCC(Oc1ccc(C(F)(F)F)cc1)c1ccccc1 (centres unmarked)", "test": "rapid equilibrium dialysis", "system": "pooled human plasma", "setting": "4 h, together with: cassette with erlotinib, losartan", "endpoint": "fraction unbound", "result": 0.04}
{"Compound": "Cc1cccc(C)c1OCC(=O)N[C@@H](Cc1ccccc1)[C@@H](O)C[C@H](Cc1ccccc1)NC(=O)[C@H](C(C)C)N1CCCNC1=O", "test": "median", "system": "HIV and HCV patients, plasma", "setting": "oral, lopinavir/ritonavir twice daily", "endpoint": "fraction unbound", "result": 0.0099}
{"Compound": "CCCCc1nc(Cl)c(CO)n1Cc1ccc(-c2ccccc2-c2nn[nH]n2)cc1", "test": "rapid equilibrium dialysis", "system": "pooled human plasma", "setting": "4 h, together with: cassette with gefitinib, Flx", "endpoint": "fraction unbound", "result": 0.01}
{"Compound": "Cc1cc(Nc2ncc(Cl)c(Nc3ccccc3S(=O)(=O)C(C)C)n2)c(OC(C)C)cc1C1CCNCC1", "test": "equilibrium dialysis", "system": "brain tumour patients, enhancing brain tumour tissue", "setting": "mean of patients", "endpoint": "fraction unbound", "result": 0.00239}
{"Compound": "C#Cc1cccc(Nc2ncnc3cc(OCCOC)c(OCCOC)cc23)c1", "test": "rapid equilibrium dialysis", "system": "pooled human plasma", "setting": "10 µM, 4 h, together with: cassette with Flx, losartan", "endpoint": "fraction unbound", "result": 0.03}
{"Compound": "CC(C)(Sc1ccncc1-c1ccc(C#N)c2ccccc12)C(=O)O", "system": "healthy Japanese males", "setting": "oral, 2.5 mg once daily, day 12, fed, geometric mean", "endpoint": "fraction excreted unchanged (0-24 h)", "result": "1.89%"}
{"note": "Excerpt of the above:"}
{"Compound": "CN(C)C(=O)c1cc2cnc(Nc3ccc(N4CCNCC4)cn3)nc2n1C1CCCC1", "test": "equilibrium dialysis", "system": "human, non-enhancing tumour homogenate", "endpoint": "fraction unbound", "result": 0.061}
